Results pooled from the literature.
Compare with care: the assays were run in different laboratories.
Target: Voltage-gated inwardly rectifying potassium channel KCNH2 (KCNH2, Homo sapiens, UniProt Q12809)
Chain of UniProt Q12809 (whole entry, looked up): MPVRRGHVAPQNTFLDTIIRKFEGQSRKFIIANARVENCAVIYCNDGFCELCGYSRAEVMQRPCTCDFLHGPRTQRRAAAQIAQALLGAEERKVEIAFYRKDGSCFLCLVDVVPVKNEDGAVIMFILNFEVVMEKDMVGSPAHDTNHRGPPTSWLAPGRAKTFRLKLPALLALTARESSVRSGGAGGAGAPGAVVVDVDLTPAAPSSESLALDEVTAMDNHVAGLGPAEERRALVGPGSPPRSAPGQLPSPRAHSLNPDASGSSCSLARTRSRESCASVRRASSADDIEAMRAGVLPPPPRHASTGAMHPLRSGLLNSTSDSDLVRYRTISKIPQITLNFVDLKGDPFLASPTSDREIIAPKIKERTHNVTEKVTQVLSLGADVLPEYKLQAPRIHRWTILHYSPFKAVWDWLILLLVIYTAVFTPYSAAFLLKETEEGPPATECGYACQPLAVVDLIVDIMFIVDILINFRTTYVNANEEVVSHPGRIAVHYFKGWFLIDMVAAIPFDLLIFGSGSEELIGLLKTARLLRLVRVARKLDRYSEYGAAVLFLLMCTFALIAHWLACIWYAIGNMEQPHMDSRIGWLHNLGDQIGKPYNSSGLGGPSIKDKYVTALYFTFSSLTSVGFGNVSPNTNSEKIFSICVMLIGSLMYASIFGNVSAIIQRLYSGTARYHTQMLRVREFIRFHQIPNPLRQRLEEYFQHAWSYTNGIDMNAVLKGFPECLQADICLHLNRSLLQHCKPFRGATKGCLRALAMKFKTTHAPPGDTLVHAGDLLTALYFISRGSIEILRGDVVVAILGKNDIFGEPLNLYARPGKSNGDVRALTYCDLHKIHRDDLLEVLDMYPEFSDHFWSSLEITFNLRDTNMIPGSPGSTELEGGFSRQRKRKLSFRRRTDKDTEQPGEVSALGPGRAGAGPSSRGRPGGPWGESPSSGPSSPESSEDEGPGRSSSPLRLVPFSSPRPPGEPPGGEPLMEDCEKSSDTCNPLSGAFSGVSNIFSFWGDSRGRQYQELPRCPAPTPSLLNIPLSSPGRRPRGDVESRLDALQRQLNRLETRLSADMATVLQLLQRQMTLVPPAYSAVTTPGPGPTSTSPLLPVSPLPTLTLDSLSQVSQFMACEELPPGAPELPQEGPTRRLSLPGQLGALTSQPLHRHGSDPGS

Structure (SMILES) | assay | test system | conditions | how to read | quantity | value
O=C(Nc1cccnn1)N1CCC(=Cc2cccc(Oc3ccc(C(F)(F)F)cn3)c2)CC1 | radioligand binding |  | 50 µM, human channel, together with: [3H]astemizole |  | inhibition of binding | 87%
C[C@@H](O)[C@H](N)C(=O)N1CCC[C@H]1C(=O)N1CCC[C@H]1C(=O)N[C@H](C(N)=O)[C@@H](C)O | radioligand binding, radioligand displacement |  | 30 µM |  | inhibition | -6%
O=C(Nc1cnccc1Cl)N1CCN(Cc2ccc3c(c2)OC(F)(F)O3)CC1 | radioligand binding |  | 10 µM, human channel, together with: [3H]astemizole |  | inhibition of binding | 29%
Cc1ccc2cc(N3CCC4(O)C(=O)c5cc(C)c(C)cc5N=C34)ccc2n1 (centres unmarked) | patch clamp | CHO | 10 µM |  | hERG inhibition | negative
Cn1nccc1[C@]1(CNC(=O)c2ccc(F)c(F)c2-c2ccc(C(F)(F)F)cc2)NC(=O)NC1=O |  |  |  | no inhibition up to value | IC50 | > 10000 nM
COc1ccc(CCC2CCCC(CCc3ccc(OC)cc3)N2C[C@@H](O)CO)cc1 (stereo in doubt) | binding, radioligand displacement |  | together with: [3H]dofetilide |  | IC50 | ~800 nM
CCOc1ccc2cc(-c3nn(CC4CCN(C)CC4)c4ncnc(N)c34)ccc2c1 | thallium flux, inhibitor |  |  |  | EC50 | 300 nM
CN(C(=O)n1cnc(-c2ccc[n+]([O-])c2)c1)C1CCCCC1 | radioligand binding |  | 50 µM, human channel, together with: [3H]astemizole |  | inhibition of binding | 11%
Nc1ncc(-c2nc(N3CCOCC3)nc(N3CCOCC3)n2)c(C(F)F)n1 | radioligand binding, antagonist ligand | membrane preparation | 10 µM, time not given |  | remaining binding | 116%
CN[C@]1(c2ccccc2Cl)CCCCC1=O | radioligand binding, radioligand displacement |  | 30 µM |  | inhibition | 2%
Cn1c(=O)ccc2ccc(F)c(CCNC[C@H]3CN(c4cnc5c(n4)NC(=O)CO5)C(=O)O3)c21 | potassium channel activity, inhibitor | human cells |  |  | IC50 | 56000 nM
CS(=O)(=O)Nc1ncn(-c2cc(F)c(COc3ccc(OS(=O)(=O)F)cc3)c(F)c2)n1 | inhibitor |  |  |  | IC50 | > 30000 nM
CCOc1ccc2cc(-c3nn(CC4CCNCC4)c4ncnc(N)c34)ccc2c1 | thallium flux, inhibitor |  |  |  | EC50 | 1660 nM
Brc1ccc2c(c1)C(c1ccccn1)=NCc1c(-c3cnco3)ncn1-2 | binding, radioligand binding |  | up to 100 mM |  | inhibition | ≤ 50%

Repeated from above:
Structure (SMILES) | assay | test system | conditions | how to read | quantity | value
O=C(Nc1cccnn1)N1CCC(=Cc2cccc(Oc3ccc(C(F)(F)F)cn3)c2)CC1 | radioligand binding |  | 50 µM, human channel, together with: [3H]astemizole |  | inhibition of binding | 87%
C[C@@H](O)[C@H](N)C(=O)N1CCC[C@H]1C(=O)N1CCC[C@H]1C(=O)N[C@H](C(N)=O)[C@@H](C)O | radioligand binding, radioligand displacement |  | 30 µM |  | inhibition | -6%
